Results from different studies.
Each numbered part is a random draw from the data of one study; scales do not carry over between parts.

Series 1
Target: Replicase polyprotein 1ab, nsp13 helicase (rep, Severe acute respiratory syndrome coronavirus 2, UniProt P0DTD1)
Action: inhibitor
Concentration: 20 µM
Quantity: inhibition
Cc1nc(Nc2cnn(C3CCNCC3)c2)nc2c1N(C)C(=O)c1cc3ccccc3cc1N2C: 7.77%
COC[C@H](C)Oc1cc(O[C@@H](C)Cc2ccccc2)cc(C(=O)Nc2ccc(C(=O)O)cn2)c1: 6.34%
O=c1[nH]c(=O)n([C@H]2C[C@H](O)[C@@H](CO)O2)cc1C(F)(F)F: -1.05%
Oc1ccc(C(O)CNCCCCCCNCC(O)c2ccc(O)c(O)c2)cc1O (centres unmarked): 7.13%
CCOC(=O)C(C)Oc1cccc2c(=O)n(CC(=O)Nc3ccc4c(c3)OCCO4)ccc12 (centres unmarked): -0.04%
O=C(CNC(=O)c1ccc(Cl)cc1)NO: 4.3%
COC(=O)N1CCN(Cc2cccc(NC(=O)Nc3ccc(C)nc3)c2F)CC1: 2.8%
CN(C)C/C=C/C(=O)Nc1ccc(C(=O)Nc2cccc(Nc3ncc(Cl)c(-c4c[nH]c5ccccc45)n3)c2)cc1: 13.7%
Nc1ccc(-c2ccc3ncc4ccc(=O)n(-c5cccc(C(F)(F)F)c5)c4c3c2)cn1: 9.43%
Cc1ccc([N+](=O)[O-])cc1O: 1.2%
O=C1CCCCCCCCCCCCCCO1: -0.87%
CN[C@@H](C)C(=O)N[C@H](C(=O)N1CCC[C@H]1C(=O)Nc1snnc1-c1ccccc1)C1CCCCC1: -0.47%
COc1cc2c(cc1OC)CN(CCc1ccc(NC(=O)c3cccc4c(=O)c5cccc(OC)c5[nH]c34)cc1)CC2: 28.4%
CNCCCC1(c2ccccc2)OC(C)(C)c2ccccc21 (centres unmarked): 8.88%
N=C(N)c1ccc(N2CCN(C3CCN(CC(=O)O)CC3)CC2)cc1: 3.57%
CC#CCOC(=O)c1c(C)nc2sc3c(c2c1N)CCC(O)C3 (centres unmarked): 0.03%
N#Cc1cc(NC(=O)C(=O)O)c(Cl)c(NC(=O)C(=O)O)c1: 7.38%
Cc1cccc(C)c1NC(=O)CC12CCCN1CCC2: 0.01%
CC(C)(C#N)c1cc(Cn2cncn2)cc(C(C)(C)C#N)c1: -3.83%
CCOC(=O)COc1ccc2c(=O)cc(-c3ccccc3)oc2c1: 11.7%
Cc1cc(C(N)=O)ccc1-n1c(CCC(=O)O)ccc1-c1ccc(-n2ccnc2)cc1: 17%
O=C(Nc1cc(Cl)cc(Cl)c1O)c1c(O)c(Cl)cc(Cl)c1Cl: 5.34%
COC(=O)Nc1nc2cc(C(=O)c3cccs3)ccc2[nH]1: 5.93%
COC(=O)Nc1nc2cc([S+]([O-])c3ccccc3)ccc2[nH]1 (centres unmarked): 0.09%
CC(=O)c1cc([N+](=O)[O-])c(Sc2ccc(F)cc2F)s1: 0.45%

Series 2
Target: Replicase polyprotein 1ab, main protease (rep, Severe acute respiratory syndrome coronavirus 2, UniProt P0DTD1)
Effect on: enzyme activity
Action: inhibitor
Concentration: 20 µM
Setting: primary screen
Quantity: inhibition
S=C(OC1CC2CC1C1CCCC21)[S][K] (centres unmarked): 74.6%
COc1ccc2[nH]c([S@@+]([O-])Cc3ncc(C)c(OC)c3C)nc2c1: 99.1%
COc1ccc2[nH]c([S+]([O-])Cc3ncc(C)c(OC)c3C)nc2n1 (centres unmarked): 69.1%
CCCCC1C(=O)N(c2ccccc2)N(c2ccc(O)cc2)C1=O (centres unmarked): 62.9%

Series 3
Target: Histone acetyltransferase KAT6A, both winged helices, GST fusion (KAT6A, Homo sapiens, UniProt Q92794, residues 1-181)
Technique: protein binding microarray
Molecule type: double-stranded DNA, one strand shown
Matrix: in vitro
Concentration: not given
Setting: 8-mer, flanks averaged, mean of 2 arrays, mostly near background
Baseline: not given
Reading: higher = stronger binding
Quantity: E-score
Target sequence (chain): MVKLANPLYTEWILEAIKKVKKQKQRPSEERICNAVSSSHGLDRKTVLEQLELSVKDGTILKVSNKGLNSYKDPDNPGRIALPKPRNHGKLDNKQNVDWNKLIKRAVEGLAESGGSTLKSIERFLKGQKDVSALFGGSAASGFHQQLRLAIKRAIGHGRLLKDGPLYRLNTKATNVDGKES
CATTACTA: -0.0438
CTTACGTA: -0.106
AACCCCCA: -0.129
ACGACTCT: -0.189
CAAAAATG: -0.0179
GCCACTAC: 0.00307
CCTAATCC: -0.112
AGGGACCC: -0.125

Series 4
Target: Interferon regulatory factor 5, full length, phosphomimetic (IRF5, Homo sapiens, UniProt Q13568-2, residues 1-514, K96S/S451D/S453D/S456D/S462D)
Technique: protein-binding microarray
Molecule type: double-stranded DNA, one strand shown
Matrix: in vitro
Concentration: 250 nM
Setting: 60-bp whole probe
Together with: salmon DNA 0.4 mg/ml
Baseline: random background probes
Reading: higher = stronger binding
Quantity: log fluorescence
Constant ends, left off below: GCCTAGCAC … GTCTTGATTCGCTTGACGCTGCTG
ACAACTAGGGAATTTAGAAAAGTGCTA: 0.141 z-score
GACGGTCTCCTTCTCCGGACGTGCTAG: -0.0561 z-score
GACGATTTGAGTTCCGAGACGTGCTAG: -0.172 z-score
CGAGTTTCCATTTTCTGAATGTGCTAG: 2.48 z-score
GACGTTTTCAGTTCCGAGACGTGCTAG: 2.42 z-score
TTAGATATCAGGTTTCGATTAGTGCTA: 7.59 z-score
AACGGACTGGGTTTCGGGACGTGCTAG: 2.35 z-score
GACGATATCGGTCTCGGGACGTGCTAG: 3.56 z-score

Series 5
Target: Sal-like protein 4, full length isoform B (SALL4, Homo sapiens, UniProt Q9UJQ4-2, residues 1-616)
Technique: universal PBM
Molecule type: double-stranded DNA, one strand shown
Matrix: in vitro
Concentration: not given
Setting: 8-mer, flanks averaged, mean of replicates
Reading: higher = stronger binding
Quantity: E-score
Target sequence (chain): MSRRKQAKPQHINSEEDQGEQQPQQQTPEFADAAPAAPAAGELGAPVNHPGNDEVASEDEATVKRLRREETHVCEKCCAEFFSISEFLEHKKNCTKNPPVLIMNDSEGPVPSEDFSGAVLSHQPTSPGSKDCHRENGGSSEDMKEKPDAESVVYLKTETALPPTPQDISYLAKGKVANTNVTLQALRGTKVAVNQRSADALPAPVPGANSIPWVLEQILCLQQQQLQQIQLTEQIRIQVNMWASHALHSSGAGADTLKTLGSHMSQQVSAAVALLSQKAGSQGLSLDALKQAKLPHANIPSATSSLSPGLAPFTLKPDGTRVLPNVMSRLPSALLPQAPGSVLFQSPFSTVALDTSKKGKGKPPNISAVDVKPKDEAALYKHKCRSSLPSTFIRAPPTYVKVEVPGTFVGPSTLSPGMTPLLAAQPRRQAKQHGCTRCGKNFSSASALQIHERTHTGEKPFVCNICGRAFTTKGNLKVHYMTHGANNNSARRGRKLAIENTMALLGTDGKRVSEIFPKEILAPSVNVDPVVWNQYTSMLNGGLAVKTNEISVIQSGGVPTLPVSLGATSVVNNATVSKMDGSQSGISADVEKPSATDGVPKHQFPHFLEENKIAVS
ACCGTGCG: -0.128
ACTGCCAG: -0.11
ACAAGTGC: -0.0259
CGCAGCCC: -0.267
CCAAACGG: -0.293
ATTATCTC: 0.272
GCTCGGGA: -0.311
GATGGGAC: -0.11
